Measurements of several laboratories.
Protocols differ between the studies behind these lines. Numbers after ± are the reported error.

With `CC(C)c1cnc(-c2cc(Cl)ccc2F)cc1Nc1ccncc1C(=O)NC(CO)CO` the Tmax was 12 h (female C57BL/6 mice, plasma; oral, 100 mg/kg twice daily, day 1, MC-38 tumour-bearing).
For `CC[C@H](C)[C@@H](C(=O)N[C@@H](CC(C)C)C(=O)N[C@@H](CO)C(=O)N[C@@H](CO)C(=O)N[C@H](C(=O)N[C@@H](CCC(=O)O)C(=O)N[C@H](C(=O)NCC(=O)N[C@@H](CO)C(=O)N[C@@H](CC(N)=O)C(=O)N[C@H](C(=O)N1C[C@H](O)C[C@H]1C(N)=O)[C@@H](C)O)C(C)C)[C@@H](C)O)N(C)C(=O)[C@H](C)NC(=O)CN(C)C(=O)[C@H](Cc1ccccc1)NC(=O)[C@H](CO)NC(=O)[C@H](CO)NC(=O)[C@H](CCCNC(=N)N)NC(=O)[C@H](CCC(N)=O)NC(=O)[C@H](CC(C)C)NC(=O)[C@H](Cc1ccccc1)NC(=O)[C@H](CCCC(=O)O)NC(=O)[C@H](C)NC(=O)[C@H](CC(C)C)NC(=O)[C@H](CCCNC(=N)N)NC(=O)[C@H](CCC(=O)O)NC(=O)[C@@H](NC(=O)[C@H](C)NC(=O)[C@@H]1CCCCNC(=O)C[C@H](NC(=O)[C@H](CCCNC(=N)N)NC(=O)CC[C@H](NC(=O)CCCCCCCCCCCCCCCCCCC(=O)O)C(=O)O)C(=O)NCC(=O)N[C@@H]([C@@H](C)O)C(=O)N[C@@H](C)C(=O)N[C@@H]([C@@H](C)O)C(=O)N1)[C@@H](C)O`, the particle size was 2 to 4 nm (DLS; Tris buffer, mannitol, NaCl; pH 6.6, 25 °C).
`CC(C)(O)c1ncc([S@](N)(=O)=NC(=O)Nc2c3c(cc4c2CCC4)CCC3)s1`: “gastrointestinal adverse events” 33% (healthy human; oral, 30 mg single dose, capsule formulation).
For `Cc1nc(N)nc2c1C(=O)N[C@@H](c1ccc(F)cc1-c1cccc(O[11CH3])n1)C2`, the tracer uptake was 47.2 ± 0.6 %ID (radioligand, ex vivo biodistribution; mouse, MDA-MB-231 xenograft, carcass; 60 min p.i.).
`O=C(Nc1cnccc1-c1ccc([18F])nc1)c1ccnc(NC(=O)C2CC2)c1` has an SUV of 0.1 (FVB/NJ mice (both sexes), salivary gland; intravenous, dose not given, 120 min).
For `CN1CCC[C@]1(C)/C=C/S(=O)(=O)NC(=O)Nc1c2c(cc3c1C(O)CC3)CCC2` (some centres unmarked), the AUC(0-24) was 61700 ng·h/mL (human, plasma; oral, 12.5 mg twice daily of parent drug, day 14, metabolite of dosed drug).
`C=C(NC(=O)c1csc(-c2nc3c(cc2O)-c2nc(cs2)C(=O)NC(C(C)O)C(=O)NC(=C(C)OC)c2nc(cs2)C(=O)NC2c4nc(cs4)C(=O)NC(COC(=O)c4c5c6c(cccc6n4O)COC(=O)C(OC4CC(C)(O)C(N(C)C)C(C)O4)C2OC5)c2nc-3cs2)n1)C(N)=O` (centres unmarked) has a half-life of 2.63 h (ICR mice, Streptococcus pneumoniae ATCC 49169 infected, immunocompromised, blood; intravenous, 32 mg/kg/day three times daily).
The mean SUV of `O=C(Nc1cnccc1-c1ccc([18F])cc1)c1ccnc(NC(=O)C2CC2)c1` is reported as 0.06 (ex vivo gamma counting; GSK-3β transgenic mice, early-stage, caudate nucleus; intravenous, 120 min).

Some of these lines once more:
`O=C(Nc1cnccc1-c1ccc([18F])nc1)c1ccnc(NC(=O)C2CC2)c1` has an SUV of 0.1 (FVB/NJ mice (both sexes), salivary gland; intravenous, dose not given, 120 min).
